Experimental data from different studies.
Each numbered part is a random draw from the data of one study; scales do not carry over between parts.

Block 1
Target: PABPC1L2, full length, GST fusion (mouse, UniProt A0ABA7IW68)
Technique: RNAcompete
Form: RNA
Medium: in vitro
Concentration: 20 nM
Setting: 7-mer, probes averaged, single round
Reference: mean of 7-mers
Reading: higher = stronger binding
Target sequence (chain): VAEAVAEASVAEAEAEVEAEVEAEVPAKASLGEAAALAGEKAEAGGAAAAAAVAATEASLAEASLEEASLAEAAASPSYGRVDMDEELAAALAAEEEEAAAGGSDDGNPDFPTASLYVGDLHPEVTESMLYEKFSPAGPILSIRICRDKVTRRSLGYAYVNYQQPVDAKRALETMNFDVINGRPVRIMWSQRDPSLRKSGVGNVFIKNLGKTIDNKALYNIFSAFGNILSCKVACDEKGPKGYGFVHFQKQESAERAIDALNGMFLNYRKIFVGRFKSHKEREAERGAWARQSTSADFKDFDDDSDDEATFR
Strand	7-mer Z-score
AUAACAG	0.153
AUUAAGU	-0.0246
UCUUUCC	-0.483
UACCAAU	-0.161
AAGGGGG	0.919
AUAUUCA	-0.0554
GUCGUUG	-0.376
UAGUCUG	-0.282
CCGCGCG	-0.316
GGAAUAG	0.0315
AUUAAAA	2.56
GUGCAUC	-0.157
CGCUACU	-0.356
CGUGGAC	0.133
UGGCAUC	0.095
CAGGGGG	0.537
CUAAAGC	0.173
ACAAGAU	0.128
AGGAUGA	-0.115
UAAACUG	0.34
UGACCCC	-0.269
CCCCGGC	-0.412
CAGCGUC	-0.175
UAGCAAU	-0.0881

Block 2
Target: RNA binding protein fox-1 homolog 2, RRM domain, GST-SBP tag (RBFOX2, Homo sapiens, UniProt O43251-10, residues 100-194)
Technique: RNA Bind-n-Seq
Form: RNA
Medium: in vitro
Concentration: 365 nM
Setting: natural RNA segment, single round, ends assumed
Reference: no-protein control
Reading: higher = stronger binding
All sequences stand within: GGGAGUUCUACAGUCCGACGAUC … UGGAAUUCUCGGGUGCCAA
Target sequence (chain): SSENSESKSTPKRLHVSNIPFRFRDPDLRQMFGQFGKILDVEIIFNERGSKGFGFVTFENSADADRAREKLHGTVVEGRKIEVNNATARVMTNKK
Strand	RBNS enrichment (R)
GCCGCAGUGGGGUCAAGCUGAGCUGGCUUCGGAGAUGGAGUCCCUUUUCAUUCUCCUCCUCCUCCCUCCUCACUCCCUAGGCCCAAGUCUCCUAGGGGCUUGGUCCUAGG	0.403
CCCCACCAUGUGCUCCCGUGCACUCCUCAGAUGGUCAGAGGGGUAACCCAAGUCCUUAGAGAAUUUGGGGACCAAUAGAAUAUGUGAUGUGUGAAUUUUCUUUAAAAAAC	0.388
CCACCCCUGAAUAGCAUGUUUCUCCCCCAUGGCACAAGGCAGGUGAAGCCCGUGCUCCCUGGAAGCCCUCACCUUCCACAGACAACAGAGAUUUCCUGCUAGAGGAAAGG	5.64
CCUUAAGCCCCAAGUAUAAAAGAGCUUAGGGGAAGGUGUAAGGGCCACAGGCUGGAAGCUGACAGCCUAGCAGGCACUCCCUUCCUCUCUUCCUUCUGCUGUGUUCCUAU	0.43
GCCCAAAGGCGCAGCUCUGAGUUCAAAGCCAAAUGUCCCCACUACCCCAGGGAUCCCCCAGCUCCCCCAGCCCCUGGCUUCCUGACCCUGCGCCUCACCCUCAGACUGGU	0.575
CGCCGUGGGCUGCGUCCUUUGGUCCUGUCCCCGCAGCCCUGGCAGGGGGCAUGCGGUCGGGCAGGGGCUGGAGGGAGGCGGGGGCUGCCCUUGGGCCACCCCUCCUAGUU	0.363
AAGCUGUGACAAUCAGAAAUGUCUCUUAGACAUUUCCAAAUGUCCCCUGGGGCAUGGGAGGGUUUCACAAAAUUGCCCACUUGUUAAGGACCCUGACUCUAAUACCACAC	0.334
CGAGCUAUGCAACCUCUGUUCUUGUAUUUCUUAUGAUCUCUGAUGGGUUCUUCUCGAAAAUGCCAAGUGGAAGACUUUGUGGCAUGCUCCAGAUUUAAAUCCAGCUGAGG	0.591
CACAAAACUGACACCCCAUCUGGGCUGCGCUCCCCGGGGGGCCUGCAGACCCCAGGACUGCUGGCAGAUUAGUUGCCUGCCAGGAGGAAUUACUUUCCUUGAUCAAAAAA	0.528
AUUUACAUCGGAAAAGUCUCUCCCUACCUUAAUCCCCCAUUCUCUUGCUUUCAAAAUACAAGCACAGCAGUCCUUGAAUGGCUGUUGACCCAGGGCACCUAGCUGUCCCU	0.824
UUGAAGUAAACCUCAGUGCCUGAGACUUUUCUACCAAGCCACACAGCUGCAGCAACUGCAGAUACUGCGGGCUGAGCAGGAGCAGUGGUGGCGCCUGCCCUGAGGCUGCC	0.276
UGUGAACCACGCUCAGGCCACACAGAGACACAUACUUGGUUUCUGGGACUGAGACCCAGGCCUGGCAGGACCGUGCCUACAGAUACUGCAAACGUUCCUACAGCCUAGAG	0.282

Block 3
Target: Ras GTPase-activating protein-binding protein 1, full length (G3BP1, Homo sapiens, UniProt Q13283)
Chain of UniProt Q13283 (whole entry, looked up): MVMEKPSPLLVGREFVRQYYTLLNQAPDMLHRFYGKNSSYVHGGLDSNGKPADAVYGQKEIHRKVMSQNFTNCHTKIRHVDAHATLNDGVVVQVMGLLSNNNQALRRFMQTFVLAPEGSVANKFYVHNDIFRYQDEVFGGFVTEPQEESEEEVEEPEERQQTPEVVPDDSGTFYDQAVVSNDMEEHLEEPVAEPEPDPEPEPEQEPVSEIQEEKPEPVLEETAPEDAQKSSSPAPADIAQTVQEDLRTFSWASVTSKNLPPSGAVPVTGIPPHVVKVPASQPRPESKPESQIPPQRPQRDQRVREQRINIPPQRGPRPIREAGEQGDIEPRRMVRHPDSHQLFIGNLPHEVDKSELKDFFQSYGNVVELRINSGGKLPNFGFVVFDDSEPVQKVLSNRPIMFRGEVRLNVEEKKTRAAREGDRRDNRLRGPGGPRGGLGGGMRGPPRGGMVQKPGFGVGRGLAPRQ
Technique: RNA Bind-n-Seq
Form: RNA
Medium: in vitro
Concentration: 200 nM
Setting: whole 134-nt RNA, ends assumed
Added: 150 mM KCl
Reference: input library
Reading: higher = stronger binding
All sequences stand within: GGGAGUUCUACAGUCCGACGAUC … UGGAAUUCUCGGGUGUCAAGG
Strand	log2 enrichment
UCCUGUGCUACACAUCGUAUGUACCGAAUCGGGGAAAAAGGGGUUUUUUUGGGGAGGGGAAAGUAUUAUGUUACGCCGUUCGGAUCUGCA	0.834
UGGCCCUGGUGGCAUGCGGGGAGGAAGAGGUGGCCUCAUGGAUCGUGGUGGUCCCGGUGGAAUGUUCAGAGGUGGCCGUGGUGCAGACAG	0.308
GCAGGAAUUAAAAACAAAUGGAAAUGCUUCGGAUAGUGGCAGGGGUGGGGGUUGCUAAGGAAAGGGUGGGAUGGGAGUGGGUAAAGAGUU	1.37
UCCUGUGCUACACAUCGUAUGUACCGAAUCGGGGAGGGGAAAAAGGGGAAAAAAAGGGGAAAGUAUUAUGUUACGCCGUUCGGAUCUGCA	0.54
GUCCUGUGCUACACAUCGUAUGUACCGAAUCGGGUUUGGGAAAAAGGGUUUUUUUGGGAAAGUAUUAUGUUACGCCGUUCGGAUCUGCAC	-0.154
GUCCUGUGCUACACAUCGUAUGUACCGAAUCGGGCCCCGGGGCCCCGGGGCCCCGGGGAAAGUAUUAUGUUACGCCGUUCGGAUCUGCAC	-0.629
AGUCCUGUGCUACACAUCGUAUGUACCGAAUCGGGGCCCCGGCCCCGGGGCCCCGGGGAAAGUAUUAUGUUACGCCGUUCGGAUCUGCAC	-1.62
UGUGCUACACAUCGUAUGUACCGAAUCGGCCCCCCCGGGGCCCCCCCGGGGCCCCCCCGGGGAAAGUAUUAUGUUACGCCGUUCGGAUCU	-2.3
UCAUGUGGAUGAAGCAGAAAAAGAAGCUCAGAAGAAGCCAGCUGAAUCUCAAAAAAUAGAGCGUGAAGAUGCCCUGGCUUUUAAUUCAGC	-0.984
UCAAGUCCUGUGCUACACAUCGUAUGUACCGAAUCGGCCCGGCCCGGGCCCGGGGAAAGUAUUAUGUUACGCCGUUCGGAUCUGCACUUC	-0.951
ACCAUGCAGGUGGGCAUCUUUGGGAAGUGGGGCAAGGGGGGGAUAGGGAGGGGGGUUACACUUUGGGAACAGGUGGUCCCAGGUCGUUUC	1.31
UGCCAUAAGCGGCACCGGCACUGCCCGGUUGUCGUGUCCGAGGCCACCAUCGUGGGCGUCCGCAAGACCGGGCAGAUCUGGCCCAACGAU	-1.48
AAGUCCUGUGCUACACAUCGUAUGUACCGAAUCGGGGCCCCGGCCCCGGGCCCCGGAAAGUAUUAUGUUACGCCGUUCGGAUCUGCACUU	-0.919
AGUCCUGUGCUACACAUCGUAUGUACCGAAUCGGGAAAAAAAGGGAGGGUUUUUGGGAAAGUAUUAUGUUACGCCGUUCGGAUCUGCACU	-0.0475

Block 4
Target: Histone acetyltransferase KAT6A, winged helix 2, GST fusion (KAT6A, Homo sapiens, UniProt Q92794, residues 85-181)
Technique: protein binding microarray
Form: double-stranded DNA, one strand shown
Medium: in vitro
Concentration: not given
Setting: 8-mer, flanks averaged, mean of 2 arrays, mostly near background
Reference: not given
Reading: higher = stronger binding
Construct (chain): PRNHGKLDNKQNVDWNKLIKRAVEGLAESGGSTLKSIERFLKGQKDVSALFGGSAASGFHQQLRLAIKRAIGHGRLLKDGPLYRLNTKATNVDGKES
Strand	E-score
ATGAACTA	-0.144
ATAGAATA	0.0931
AAGACCTG	0.0114
CCTGTGTC	-0.0588
ATGGGTCC	-0.151
CCGCCAAA	0.152
GGACAGGA	0.095
ATCTCCCG	0.0346
GATCCTGC	0.0644
AATGTATA	-0.0191
AAACGGCG	0.107
TTAATCAA	0.0639
GGCGAACA	0.185
ATCCTTAC	-0.201
CCCCTAAA	-0.0584
GATGGCTA	0.0648
ACCTGCCA	-0.0153
ACAAGCTC	0.151
GGAGAGTA	0.0333
AGGAGGAA	0.0485
CGTACGAC	-0.131
CCCCTAGG	-0.131
ATCTACCG	-0.0652
TGGGTGAA	0.142
AAAGTTAT	0.111

Block 5
Target: RING finger protein unkempt homolog, zinc fingers 1-6, SBP tag (UNK, Homo sapiens, UniProt Q9C0B0, residues 30-357)
Chain of UniProt Q9C0B0 (30-357, looked up): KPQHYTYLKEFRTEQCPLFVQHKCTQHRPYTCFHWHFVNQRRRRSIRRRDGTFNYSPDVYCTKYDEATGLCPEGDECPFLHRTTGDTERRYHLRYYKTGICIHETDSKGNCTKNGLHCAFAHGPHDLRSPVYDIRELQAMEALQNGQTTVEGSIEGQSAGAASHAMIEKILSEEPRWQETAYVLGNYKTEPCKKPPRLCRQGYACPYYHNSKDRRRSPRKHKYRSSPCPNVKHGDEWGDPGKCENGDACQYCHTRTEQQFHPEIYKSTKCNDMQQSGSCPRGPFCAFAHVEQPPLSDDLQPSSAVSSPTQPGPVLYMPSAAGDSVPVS
Technique: RNA Bind-n-Seq
Form: RNA
Medium: in vitro
Concentration: 100 nM
Setting: RNA with constant flanks, vertebrate orthologous sites, ends assumed
Reference: input RNA pool
Reading: higher = stronger binding
All sequences stand within: GGGAGUUCUACAGUCCGACGAUC … CAACAGAGGAUUGAGCAUCA
Strand	bound/input enrichment [ratio]
UAUCUUUAGGAUGAAGCUCUUACAUCAGGUAUCACGAGUCUGGAGAACAGAUGGGUUGACUAGUUGUAUUUACAAAUUACUCUCUGUGGAUUAUAAUCCUUUGUAUACCAACAUCACAGU	0.321
UCUAUACGAUUUUAAAGACACUUCCUUACAAGGCACUUUGGCUCUUCAUAGAUCCCAUUGUAUUUACAGAUCUAUUUUUUUAAAAUAGCAGUAUGAACUCAAAGGGGACUUGGUUGGUGU	0.58
ACGCUUUGAUAUUAAAUUUGACAUAAAAAGCAGCUGAUUGUAAGCACAACUCUUUCCUCCUAGCCAUUUAAAAAAGGUAAAAGACAAAAAAGAAAACCUACUAGUCUUGAACAAACUGUC	0.683
UAUUCAGUCAUGGAGAAAAAGAUAUUAAAAUAAUUUUAUGGCACUGCUCUUUACUUUUGUUAGUUUUAUAAAAGUUAGGGUUCUUGUUUACAAACAACAGGAGCUGACUAUUGAGGAGAA	0.467
AUCUUUUUAACUUCAUGUUGGCCUGCACAUGAUUCGAGUCCUGUGUUGUCUUUUUCUUACACAGUUUGUUUGUCACUCUUUUUUUUCUUUCUCUCAGGCGAAGGGCUAGAGUUAAAAAAA	0.622
UAAUUGUAAUGCAGAAAUCAUUCUAGUUCUAAAUUAGCUACAGUGAUAACUAGUCUGCACUAAGAAUUGUUUACCUUUUAAAUUAUCUGCUUUGUCUGAUACAUAAAACAUAUCAAAAUU	0.461
GCUGUUGUGUAAAAUGUCUGCCCAGAGAAGUAUCACUCUAUAAAUAUUAAUCAAAUAGUUUACCUAUAGUCUUCUUAAGUAUUGAAUUAUAUGUCAAGCAUUUAAAGUGAGUUUGAGAUG	0.516
AUCCCUCAGUGACAGCAUGCCGUCUGUAGCAGAUUCCCACUCCAGUCAUUUUUCUGAAUUUAGCUGCUCAGACUUAGAAAGCAUGAGAACGUCCUGUAGUCACGGCUCCAGUGAUUGCCA	0.351
AACUUAAUAUUGUGGCAUAUAGUCAACAUGGAUGUAGACCAGCUCUGCUGAUUUGAAAUUUAGAUAUUUUUAAUUAUGUACUGGGGACAGGUUUUUGUCGCUUUACAUUGCUUCCUAGUU	2.69
AUCUCGUGCCUCACCCCACAGGAAGUGGGGGAAGCUGGAUGACCCUCACUGUUCCAAUUUAAUAUUUGUUGGUUUUCUUUUUUAAACAAAAAAAAAAUUCCUGUAUUUAUUAUGACGAUG	0.161
AAGAUGGUGGUUGUACAUUAUUUCAUUUAGAAAAUAUAAAAAUUCAUUUUGUUUUGAAGCUAGGUGUUAAACUGGAAUAGCUCUUAUACCCCAGAGAAUGGGGCAGUUGUGCCCUUCCCU	1.64

Block 6
Target: TATA-box-binding protein 1 (TBP1, Arabidopsis thaliana, UniProt P28147, residues 1-200, full length assumed)
Technique: protein-binding microarray
Form: double-stranded DNA, one strand shown
Medium: in vitro
Concentration: not given
Setting: k-mer, scored over probes, only values ≥0.25
Reading: higher = stronger binding
Target sequence (chain): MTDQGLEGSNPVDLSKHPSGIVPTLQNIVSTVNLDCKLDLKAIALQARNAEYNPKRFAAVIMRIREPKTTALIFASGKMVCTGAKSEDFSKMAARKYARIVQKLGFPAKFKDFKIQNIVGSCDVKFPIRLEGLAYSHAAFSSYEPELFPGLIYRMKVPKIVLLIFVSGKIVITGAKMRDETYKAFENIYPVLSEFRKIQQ
Strand	E-score
ACTTAAG	0.357
ATATCTG	0.287
CAATAAA	0.366
ATAAGCG	0.284
TTATCAA	0.331
ATATTAC	0.407
AATAAAG	0.381
ATAAAGC	0.341
CGCATAA	0.271
AAAAAAT	0.259
ATAAGAT	0.361
ATTAAGA	0.263
GCTTATA	0.437
TATTCAA	0.257
TATGTAA	0.315
CATATAC	0.337
AAATAAA	0.419
CATATGA	0.26
GTTAATA	0.343
ATAAACC	0.338
ATACCAA	0.279
ATATCCC	0.288
AATTATA	0.44
ATATAGA	0.406
TATTAAA	0.443
